# Results collected from several papers.
# Parts stem from different laboratories: compare values within a part only.

# Block 1 — method: protein-binding microarray; form: double-stranded DNA, one strand shown; medium: in vitro; concentration: 940 nM top; notes: 60-bp whole probe; with: salmon DNA 0.4 mg/ml; relative to: random background probes; direction: higher = stronger binding
# Target: Interferon regulatory factor 5, full length, phosphomimetic (IRF5, Homo sapiens, UniProt Q13568-2, residues 1-514, S451D/S453D/S456D/S462D)
Strand,fitted relative affinity [z-score]
GCCTAGCACTGTTGTCTTAGATTCCTTTGGTGCTAGGTCTTGATTCGCTTGACGCTGCTG,0.605
GCCTAGCACTTAGGTATCAGTATCGATTAGTGCTAGGTCTTGATTCGCTTGACGCTGCTG,6.76
GCCTAGCACTTAGATTTCGGGTTTCAATTAGTGCTAGTCTTGATTCGCTTGACGCTGCTG,2.39

# Block 2 — method: universal PBM; form: double-stranded DNA, one strand shown; medium: in vitro; concentration: 600 nM; direction: higher = stronger binding
# Target: Sal-like protein 4, full length isoform A (SALL4, Homo sapiens, UniProt Q9UJQ4, residues 1-1053)
# Sequence of UniProt Q9UJQ4 (whole entry, looked up): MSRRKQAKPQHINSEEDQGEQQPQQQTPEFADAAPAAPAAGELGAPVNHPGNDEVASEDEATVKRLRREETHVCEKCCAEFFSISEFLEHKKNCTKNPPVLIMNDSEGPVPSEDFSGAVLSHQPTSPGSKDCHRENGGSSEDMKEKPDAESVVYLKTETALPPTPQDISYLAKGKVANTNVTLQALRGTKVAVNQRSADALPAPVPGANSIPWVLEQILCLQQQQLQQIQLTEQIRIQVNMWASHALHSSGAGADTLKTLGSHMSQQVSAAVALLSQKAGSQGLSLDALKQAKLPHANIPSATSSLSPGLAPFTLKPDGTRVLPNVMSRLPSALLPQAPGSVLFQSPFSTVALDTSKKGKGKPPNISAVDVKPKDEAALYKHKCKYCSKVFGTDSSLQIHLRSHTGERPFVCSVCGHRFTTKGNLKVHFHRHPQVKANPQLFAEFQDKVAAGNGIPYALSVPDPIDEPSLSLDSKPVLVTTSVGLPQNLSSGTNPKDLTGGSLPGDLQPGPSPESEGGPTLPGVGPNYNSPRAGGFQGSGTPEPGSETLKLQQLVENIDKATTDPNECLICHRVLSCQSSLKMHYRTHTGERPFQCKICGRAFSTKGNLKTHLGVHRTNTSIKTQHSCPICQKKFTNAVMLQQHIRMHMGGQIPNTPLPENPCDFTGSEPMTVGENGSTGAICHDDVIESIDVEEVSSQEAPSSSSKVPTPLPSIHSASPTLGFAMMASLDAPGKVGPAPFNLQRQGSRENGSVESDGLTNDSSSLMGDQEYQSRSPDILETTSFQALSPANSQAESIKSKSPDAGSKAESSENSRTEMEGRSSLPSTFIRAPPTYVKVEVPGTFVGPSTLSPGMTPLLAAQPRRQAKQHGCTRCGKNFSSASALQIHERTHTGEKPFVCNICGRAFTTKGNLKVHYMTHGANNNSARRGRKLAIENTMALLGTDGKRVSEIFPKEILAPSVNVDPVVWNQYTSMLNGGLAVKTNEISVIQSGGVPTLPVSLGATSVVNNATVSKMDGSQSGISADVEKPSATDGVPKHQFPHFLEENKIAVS
# Notes: 8-mer, flanks averaged, mean of replicates
Strand,E-score
CTCATCAG,0.0997
GTCATCAC,0.0166
CAGGAACC,-0.216
GCTGCGTA,-0.142

# Block 3 — method: protein binding microarray; form: double-stranded DNA, one strand shown; medium: in vitro; concentration: not given; relative to: not given; direction: higher = stronger binding
# Target: Histone acetyltransferase KAT6A, winged helix 1, GST fusion (KAT6A, Homo sapiens, UniProt Q92794, residues 1-85)
# Notes: 8-mer, flanks averaged, mean of 2 arrays, mostly near background
# Construct (chain): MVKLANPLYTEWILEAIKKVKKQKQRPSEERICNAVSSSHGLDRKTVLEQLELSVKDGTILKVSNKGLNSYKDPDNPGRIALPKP
Strand,E-score
ACAATAGT,-0.0473
GGGGCGCA,0.239
AATACGCA,0.0661
AACCTAAG,-0.0356
AATAAGGA,-0.215

# Further values, each from its own experiment
Substance,target,assay,test system,setting,scale,endpoint,value
"PhoQ, residues 284 288 289 292 302 303 SACGEM","PhoP, residues 12 14 15 18 19 DLLYY (Escherichia coli, UniProt P23836)","Sort-seq, measured: YFP reporter",E. coli,"PhoQ-PhoP variant library, with: 10 µM Mg2+","relative to: high Mg2+ state, higher = stronger signaling",fold induction,2.74

# Excerpt of the above (block 3):
Strand,E-score
AACCTAAG,-0.0356
AATAAGGA,-0.215
